Measurements gathered from unrelated publications.
Each numbered part is a random draw from the data of one study; scales do not carry over between parts. Substitutions count along the parent as printed.

Sample 1 — method: universal PBM; molecule type: double-stranded DNA, one strand shown; sample: in vitro; concentration: not given; direction: higher = stronger binding; quantity: E-score
Target: Sal-like protein 4, full length isoform B (SALL4, Homo sapiens, UniProt Q9UJQ4-2, residues 1-616)
Setting: 8-mer, flanks averaged, mean of replicates
CACTGTCA: -0.0374
AACCATAG: 0.078
ATAGCAGA: 0.0661
AGTACCCG: -0.135
AATGCGTG: 0.074
ATACAGCG: 0.0612
TCTGGACA: -0.142
GGGTCATA: 0.172

Sample 2 — target: Sox, HMG box (Pigoraptor chileana); method: Spec-seq; molecule type: double-stranded DNA, one strand shown; sample: in vitro; concentration: not given; setting: whole probe, mean of replicates; relative to: not given; direction: lower = stronger binding; quantity: relative binding energy; constant ends, left off below: GAGTCGTCTCGTCAGCAC … CCGTAGAGCACTCAGGTC
Target sequence (chain): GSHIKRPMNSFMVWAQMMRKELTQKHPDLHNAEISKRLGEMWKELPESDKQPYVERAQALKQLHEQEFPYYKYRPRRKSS
CATCCAT: 0.349 ln ratio
CTCTGTT: -1.27 ln ratio
CATCGAG: 0.47 ln ratio
CATGGCG: 0.527 ln ratio
CCCCGTT: 0.772 ln ratio
GTTCGTT: 1.58 ln ratio
GGAAGTT: 1.05 ln ratio
CATTTCG: 0.748 ln ratio

Sample 3 — target: inorganic phosphate, free oxyanion; method: microfluidic competitive inhibition; sample: in vitro, cell-free expressed; concentration: not given; direction: lower = stronger binding; quantity: phosphate dissociation constant
Setting: derived from inhibition constants, unchanged parent 615000 nM
Parent: PafA, mature enzyme, eGFP fusion (Elizabethkingia meningoseptica, UniProt Q9KJX5); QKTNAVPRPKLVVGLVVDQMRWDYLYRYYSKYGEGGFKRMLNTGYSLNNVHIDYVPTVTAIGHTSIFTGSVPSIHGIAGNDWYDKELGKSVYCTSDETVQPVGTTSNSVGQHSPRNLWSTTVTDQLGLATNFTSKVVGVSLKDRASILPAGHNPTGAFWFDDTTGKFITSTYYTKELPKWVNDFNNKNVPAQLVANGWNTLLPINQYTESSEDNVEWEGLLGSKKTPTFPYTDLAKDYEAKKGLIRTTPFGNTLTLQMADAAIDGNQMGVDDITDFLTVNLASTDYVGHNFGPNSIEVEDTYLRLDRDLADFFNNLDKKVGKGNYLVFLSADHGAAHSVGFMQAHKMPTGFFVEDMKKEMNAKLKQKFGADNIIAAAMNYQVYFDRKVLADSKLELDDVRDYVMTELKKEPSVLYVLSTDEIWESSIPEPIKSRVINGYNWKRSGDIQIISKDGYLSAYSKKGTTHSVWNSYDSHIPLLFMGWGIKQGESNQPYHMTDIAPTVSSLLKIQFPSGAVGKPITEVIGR
S146G: 656 µM
N185V: 475 µM
S295V: 206 µM
F511G: 504 µM
L277G: 456 µM
W198G: 300 µM
P519V: 646 µM
V339A: 567 µM
V6A: 598 µM
I436V: 640 µM
I52V: 362 µM
S95G: 575 µM
F313V: 635 µM
V55G: 208 µM
R27G: 477 µM
V523A: 655 µM
D473G: 135 µM
N49V: 498 µM

Single results of other studies
ramoplanin — MIC (Staphylococcus aureus; hemB transposon mutant; relative to: wild type): no effect
CC(=O)N1CCC(c2ccc(C(=O)NC(=N)N)cc2C(F)(F)F)CC1 — remaining binding (CDPK1 (Plasmodium falciparum, UniProt P62344); cell-free assay, competition with immobilised ligand; 1 µM): 87%
